Measurements of several laboratories.
Lines come from different studies, so protocols differ. Several values in a cell are separate wells, animals, samples, runs or records. Numbers after ± are the reported error.

C[C@]1(CO)Cc2ncn(-c3ccc(C#N)c(Cl)c3)c2C(=O)O1  subjects with drug-related TEAE (measured: involuntary muscle contractions; human; 0.7 mg single dose): 0%
CN1CCN(S(=O)(=O)c2cc([N+](=O)[O-])ccc2N(CCOS(C)(=O)=O)CCOS(C)(=O)=O)CC1  albumin (naive NOD/SCID mice, pooled blood; intraperitoneal, 18.8 mg/kg, week 4): 41 g/L
C[C@@H]1NC(=O)[C@H](CCCCNC(=O)CO/N=C/C(=O)NCCCC[C@@H]2NC(=O)[C@@H](Cc3ccccc3)NC(=O)[C@H](CC(=O)O)NC(=O)CNC(=O)[C@H](CCCNC(=N)N)NC2=O)NC(=O)CNC(=O)[C@@H]2CCCN2C(=O)[C@H](CCCCNC(=O)CO/N=C/C(=O)NCCCC[C@@H]2NC(=O)[C@@H](Cc3ccccc3)NC(=O)[C@H](CC(=O)O)NC(=O)CNC(=O)[C@H](CCCNC(=N)N)NC2=O)NC(=O)[C@H](CCCCNC(=O)CN2CCCNCCNCCCNCC2)NC(=O)[C@H](CCCCNC(=O)CO/N=C/C(=O)NCCCC[C@@H]2NC(=O)[C@@H](Cc3ccccc3)NC(=O)[C@H](CC(=O)O)NC(=O)CNC(=O)[C@H](CCCNC(=N)N)NC2=O)NC(=O)CNC(=O)[C@@H]2CCCN2C(=O)[C@H](CCCCNC(=O)CO/N=C/C(=O)NCCCC[C@@H]2NC(=O)[C@@H](Cc3ccccc3)NC(=O)[C@H](CC(=O)O)NC(=O)CNC(=O)[C@H](CCCNC(=N)N)NC2=O)NC1=O [copper-64 labelled]  tissue uptake (normal mice, stomach; intravenous, 0.74 MBq, 3 h post-injection): 2.79 ± 0.17 %ID/g
O=C1Nc2cc3[nH]nc(-c4ccncc4)c3cc2CN1Cc1ccccc1  patients with increased GGT (CTCAE v4.03; advanced solid tumour patients; intravenous, 9.6 mg/kg, schedules 1/2): 33%
O=S(=O)(Nc1ccccc1)c1ccc(NC(=S)Nc2ccccc2)cc1  relative organ weight (mouse, male, liver; oral, 20 mg/kg daily, 14 days; relative to: body weight): 5.66%
C[C@@H]1OC(=O)NN=C1c1ccc(-c2ccc(F)cc2)c(C(F)(F)F)c1  patients with adverse event (phase I trial, measured: platelet count decreased all grades; human patients; 20 mg loading then 1 mg daily): 100%
O=c1ccc2ncc(=O)n3c2n1C[C@H]3CN1CCC(NCc2cc3c(cn2)OCCC3)CC1  renal clearance (healthy human volunteers; oral, 1500 mg, alone, arithmetic mean): 280 mL/min
O=C(Nc1ccc(Cl)cc1)Nc1ccc(Cl)c(Cl)c1  final permeate concentration (ultrafiltration; cow milk whey; 20 nM nominal in whole milk): 0.03 nM
CC1(C)C(C=C(Cl)Cl)C1C(=O)OC(C#N)c1ccc(F)c(Oc2ccccc2)c1 (centres unmarked)  enzyme contribution to clearance (measured: CYP2C8; human, age 6 months, recombinant human CYP2C8; 0.1 µM): 0.67%
CO[C@H]1C[C@@H]2CC[C@@H](C)[C@@](O)(O2)C(=O)C(=O)N2CCCC[C@H]2C(=O)O[C@H]([C@H](C)C[C@@H]2CC[C@@H](OC(=O)NCCOCCOCCOCCOCCOCCOCCOCCOCCC(=O)N3CCc4cc(Cn5nc(-c6ccc7oc(N)nc7c6)c6c(N)ncnc65)ccc4C3)[C@H](OC)C2)C[C@@H](O)[C@H](C)/C=C(\C)[C@@H](O)[C@@H](OC)C(=O)[C@H](C)C[C@H](C)/C=C/C=C/C=C/1C  decreased appetite TEAE incidence (dose-escalation trial; patients with advanced solid tumours; intravenous, all doses weekly, grade ≥3): 1.8%
O=C(c1ccc(F)c(F)c1Nc1ccc(I)cc1F)N1CC(O)([C@@H]2CCCCN2)C1  adverse events (human patients; oral, 1 mg/kg, age ≥18 years): 100%
[O-][S+]1CCc2nc(N3CCC(c4ncc(Cl)cn4)CC3)nc(NC3(CO)CCC3)c21 (centres unmarked)  subjects with adverse events (phase I trial, measured: upper abdominal pain; healthy male volunteers; dose not given, single rising dose, all cohorts): 8.3%
COc1c(OCCCN2CCOCC2)ccc2c1N=C(NC(=O)c1cnc(N)nc1)N1CCN=C21  patients with adverse event (measured: Anorexia; patients with advanced malignancies; intravenous, dose not given, any grade, all cohorts, together with: gemcitabine): 64%
CC(C)(c1ccccc1)c1cc(-n2nc3ccccc3n2)c(O)c(C(C)(C)c2ccccc2)c1  daily dermal uptake, percentile (exposure assessment; human, age 21-60 years; concentration not given, cream, 95th percentile): 4.88 ng/kg body weight/day
CCCCN1CCC(COC(=O)c2ccc(N)c(O[11CH3])c2)CC1  peak radioactivity (PET; rhesus monkey, whole brain; dose not given, average): 2.3 SUV
O=C(O)CCCOc1ccc(F)cc1-c1cc(-c2ccccc2C(F)(F)F)n(-c2ccccc2)n1  serum enzyme activity (measured: ALP; Crl:CD(SD) rats, female, serum; iv, 25 µg/kg, 1 day): 151 ± 29.8 U/L
CCN1[C@@H](C(=O)NC23CCC(C(=O)O)(CC2)CC3)[C@H](c2cccc(Cl)c2F)[C@]2(C(=O)Nc3cc(Cl)ccc32)C12CCCCC2  grade ≥3 Anemia incidence (patients with advanced solid tumours; oral, 150 mg): 37.5%
COc1ccc2nc3cc(Cl)ccc3c(Nc3cc(CN4CCCC4)c(O)c(CN4CCCC4)c3)c2n1  haemoglobin (mouse, blood; intraperitoneal, 57 mg/kg): 136 g/L
COc1ccc(C[C@@H]2NC(=O)[C@H]([C@@H](C)O)NC(=O)[C@@H]3[C@@H]4CCN3C(=O)[C@@H]3Cc5cn(c6ccc(F)cc56)CCCCCCN(Cc5ccc(cc5)CCNC(=O)[C@]5(C)CCCN5C2=O)C(=O)CCC(=O)N[C@@H](C)C(=O)N[C@H](CNC(=O)CCCCC[N+](C)(C)C)C(=O)N[C@@H](Cc2cccc(c2)CNC(=O)CO4)C(=O)N3)cc1  AUC(0-t) (human, plasma; oral, 200 mg, together with: Labrasol 1800 mg): 1.16 µM·h
Oc1ccccc1-c1nc(-c2cccs2)c(-c2cccs2)[nH]1  maximum response (Vero-E6; CellTiter-Glo ATP; 72 h, first round 5-point; relative to: DMSO 0%, hyamine -100%, more negative, more toxic): -16.9%
COc1cc2c(Oc3ccc4[nH]c(C)cc4c3F)ccnc2cc1OCC1(N)CC1  Myalgia incidence (paediatric refractory sarcoma patients; 8 mg): 50%
CCCCCCCCCCCCCCCC(=O)N[C@@H](CCC(=O)NCCCC[C@H](NC(=O)[C@H](CC(=O)O)NC(=O)[C@H](CO)NC(=O)[C@@H](NC(=O)[C@H](Cc1ccccc1)NC(=O)[C@@H](NC(=O)CNC(=O)[C@H](CCC(N)=O)NC(=O)[C@H](CO)NC(=O)[C@@H](N)Cc1c[nH]cn1)[C@@H](C)O)[C@@H](C)O)C(=O)N[C@@H](CO)C(=O)N[C@@H](CCC(=O)O)C(=O)N[C@@H](Cc1ccc(O)cc1)C(=O)N[C@@H](CC(C)C)C(=O)N[C@@H](CC(=O)O)C(=O)N[C@@H](CO)C(=O)N[C@@H](CCC(=O)O)C(=O)N[C@@H](CCCNC(=N)N)C(=O)N[C@@H](C)C(=O)N[C@@H](CCCNC(=N)N)C(=O)N[C@@H](CC(=O)O)C(=O)N[C@@H](Cc1ccccc1)C(=O)N[C@H](C(=O)N[C@@H](C)C(=O)N[C@@H](Cc1c[nH]c2ccccc12)C(=O)N[C@@H](CC(C)C)C(=O)N[C@@H](CCC(=O)O)C(=O)N[C@@H](C)C(=O)NCC(=O)NCC(=O)O)C(C)C)C(=O)O  injection site erythema (human, all renal groups; sc, 100 µg single dose): 2.7%
C[C@@H](NC(=O)N1C(=O)[C@H](Cc2ccnc(N)c2)[C@H]1C(=O)O)C1CCCCC1  incidence of urine ketone body positive (healthy adult Chinese volunteers; continuous intravenous infusion, 1.0 mg/kg/h, 5-day infusion, CTCAE 5.0 grading): 0%
CC(C)[C@@H]1NC(=O)CNC(=O)[C@H](CC(N)=O)NC(=O)[C@H](CCCNC(=N)N)NC(=O)[C@H](Cc2ccc(O)cc2)NC(=O)[C@H](C(C)C)NC(=O)[C@@H](NC(=O)[C@@H](NC(=O)[C@H](CC(N)=O)NC(=O)[C@H](Cc2c[nH]c3ccccc23)NC(=O)[C@H](C)NC(=O)[C@H](Cc2ccccc2)NC(=O)CN)C(C)C)CSSC[C@@H](C(=O)N[C@@H](Cc2cnc[nH]2)C(=O)N[C@@H](CCCNC(=N)N)C(=O)N[C@@H](CCCNC(=N)N)C(=O)N[C@@H](C)C(=O)N[C@@H](CC(N)=O)C(N)=O)NC(=O)[C@H](C(C)C)NC(=O)[C@H](CCCNC(=N)N)NC1=O  glucose (ICR mouse, blood; intramammary, 5 mg/kg, day 5, 3 d dosing): 1.59 ± 0.1 mmol/L
CN1CC[C@@H](c2c(O)cc(O)c3c(=O)cc(-c4ccc(C(F)(F)F)cc4Cl)oc23)[C@@H]1CO  patients with adverse event (measured: Fatigue; B-cell malignancies or AML; oral, 50 mg, continuous dosing): 0%
Cn1ncc(-c2nc(N[C@H]3CC[C@H](N)CC3)ncc2Cl)c1CC1CC1  gamma-glutamyl transferase increase incidence (phase I dose escalation; human patients; dose not given, treatment-related grade 3 or higher): 3.2%
CC(C)(Nc1nc(N2CCNCC2)nc2ccccc12)c1ccccc1  maximum response (Vero-E6; CellTiter-Glo ATP; 72 h, retest 8-point duplicates; relative to: DMSO 0%, hyamine -100%, more negative, more toxic): -4.44%
N=c1c2c(-c3ccccc3)c(-c3ccccc3)n(Cc3ccccc3)c2ncn1[C@H]1CC[C@H](O)CC1  excreted unchanged in bile (bile duct-cannulated Sprague-Dawley rat, male; intravenous, 1 mg/kg, 48 h; relative to: dose): 1.6% and < 2%
COc1ccc(-c2c(-c3ccc(C#N)c(F)c3)nc(N3CCC(N)CC3)n(C)c2=O)cc1F  serious adverse event incidence (measured: Hematemesis; human patients; oral, 60 mg, dose expansion): 0%
O=C(Nc1ccccc1)C1CCN(C(=O)Oc2cccnc2)CC1  subjects with cold sweat (adverse event reporting; healthy women; oral, 100 mg, 9 days): 7.7%
CC(C)C(=O)OC[C@H]1O[C@@H](n2ccc(NO)nc2=O)[C@H](O)[C@@H]1O  bench-top stability (rat maternal blood dialysate; 250 ng/mL, 6 h, room temperature, high concentration, together with: NHC 1000 ng/mL): 100.7 ± 0.26%
COC[C@@H](CC(C)C)NC(=O)c1ccc(C)c(C)c1  micronucleated PCE per 1000 PCE (bone marrow polychromatic erythrocytes, mouse Hsd:ICR (CD-1), male; oral, 624 mg/kg, 24 h): 0.4
N[C@@H]1c2ccccc2OC12CCN(c1cnc3c(N4CCCc5ncccc54)n[nH]c3n1)CC2  TEAE leading to withdrawal (advanced metastatic solid tumour patients; oral, 20 mg once daily): 0%
Cc1ccc(F)c2cc(C(=O)N[C@@H]3CCC[C@H](N4CC[C@H](N(C)S(C)(=O)=O)C4)C3)[nH]c12  Vss (CD1 mouse; intravenous, 1 mg/kg): 8.15 L/kg
Cc1c(COC(=O)[C@@H]2[C@H](/C=C(\Cl)C(F)(F)F)C2(C)C)cccc1-c1ccccc1 (racemic)  enzyme contribution to clearance (measured: CYP2C8; human, age 1 year, recombinant human CYP2C8; 0.1 µM): 7.96%
Cc1cc(C)c(CNC(=O)c2cc(Cl)c3c(c2C)O[C@@](C)([C@H]2CC[C@H](N(C)C)CC2)O3)c(=O)[nH]1  Rash incidence (human, relapsed/refractory NHL; concentration not given, all TEAEs, grade 5): 0%
COc1ncccc1-c1cnn2ccc(N3CCN(C(=O)OC(C)C)CC3)nc12  free concentration (mouse formalin model, plasma; oral, 30 mg/kg, 60 min): 280 nM
C[C@H]1COCCN1c1nc(NCc2cccnc2C(F)(F)F)c2cccnc2n1  Tmax (BALB/c mice; oral, 10 mg/kg): 10.2 min
N#CCNC(=O)c1ccc(-c2ccnc(Nc3ccc(N4CCOCC4)cc3)n2)cc1  presyncope incidence (healthy volunteers; oral, 200 mg, together with: midazolam 5 mg): 0%
CC(C)C[C@H](NC(=O)[C@H](CCCCN)NC(=O)OCC1c2ccccc2-c2ccccc21)C(=O)N[C@H](C(=O)N[C@@H](Cc1ccccc1)C(=O)N[C@@H](Cc1ccccc1)C(=O)N[C@@H](CCCCN)C(=O)NCC(=O)N[C@@H](Cc1ccccc1)C(=O)N[C@@H](C)C(=O)N[C@@H](Cc1c[nH]c2ccccc12)C(=O)N[C@@H](CC(N)=O)C(=O)N[C@H](C(=O)N[C@H]1CSSC[C@@H](C(=O)N[C@@H](Cc2c[nH]cn2)C(=O)N[C@@H](CCCNC(=N)N)C(=O)N[C@@H](CCCNC(=N)N)C(=O)N[C@@H](C)C(=O)N[C@@H](CC(N)=O)C(N)=O)NC(=O)[C@H](C(C)C)NC(=O)[C@H](CCCNC(=N)N)NC(=O)[C@H](C(C)C)NC(=O)CNC(=O)[C@H](CC(N)=O)NC(=O)[C@H](CCCNC(=N)N)NC(=O)[C@H](Cc2ccc(O)cc2)NC(=O)[C@H](C(C)C)NC1=O)C(C)C)C(C)C  peptide remaining (HPLC; trypsin buffer; 6.00 h, 37 °C, together with: trypsin 1 % w/v): 47.5% and 43.3% and 41.9%
CCc1ccc(CC/C=C/c2ccc3c(c2)C(=O)CC3)cc1  TC (Sprague-Dawley rat, male; oral, 120 mg/kg/day, 14 days): 1.86 mM
